Published values gathered from unrelated publications.
Lines come from different studies, so protocols differ. Values joined by “and” are separate records of one study, mostly repeats; a detail may differ.
Target: Fibroblast growth factor receptor 1 (FGFR1, Homo sapiens, UniProt P11362)
UniProt P11362, sequence (whole entry, looked up): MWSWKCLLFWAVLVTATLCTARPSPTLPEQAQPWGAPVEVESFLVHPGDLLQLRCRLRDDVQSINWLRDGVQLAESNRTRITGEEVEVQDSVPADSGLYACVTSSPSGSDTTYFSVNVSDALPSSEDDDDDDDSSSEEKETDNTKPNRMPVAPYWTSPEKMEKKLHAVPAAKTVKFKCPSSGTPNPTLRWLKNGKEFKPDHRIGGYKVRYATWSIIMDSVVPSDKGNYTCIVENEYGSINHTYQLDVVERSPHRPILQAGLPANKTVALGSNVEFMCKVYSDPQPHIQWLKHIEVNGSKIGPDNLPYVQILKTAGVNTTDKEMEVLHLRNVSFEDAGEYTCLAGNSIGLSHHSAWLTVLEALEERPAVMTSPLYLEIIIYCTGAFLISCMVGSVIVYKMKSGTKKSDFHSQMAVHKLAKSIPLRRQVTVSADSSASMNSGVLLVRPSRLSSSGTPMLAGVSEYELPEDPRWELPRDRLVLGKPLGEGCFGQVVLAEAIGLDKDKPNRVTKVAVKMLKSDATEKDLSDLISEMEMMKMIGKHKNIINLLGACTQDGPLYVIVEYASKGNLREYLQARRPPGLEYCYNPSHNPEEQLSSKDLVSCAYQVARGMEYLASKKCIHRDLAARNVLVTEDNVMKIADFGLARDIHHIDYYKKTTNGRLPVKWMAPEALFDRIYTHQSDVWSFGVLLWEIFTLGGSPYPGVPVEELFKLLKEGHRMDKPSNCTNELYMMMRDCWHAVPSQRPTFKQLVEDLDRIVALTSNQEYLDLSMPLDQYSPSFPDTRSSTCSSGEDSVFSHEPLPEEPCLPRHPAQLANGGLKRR

SMILES	test	setting	IC50
COc1cc2nccc(Oc3ccc4c(c3)CCCN4C(=S)NC3CC3)c2cc1C(N)=O	–	–	3700 nM
O=C1Nc2ccc(-c3ccc4cc(O)ccc4c3)cc2/C1=C/c1ccc(N2CCNCC2)cc1	enzyme activity, inhibitor, FRET	–	1110 nM
COc1cc2nccc(Oc3ccc(NC(=S)NC4CCOCC4)c(Cl)c3)c2cc1C(N)=O	–	–	5070 nM
COc1ccc(C(=O)/C=C/c2ccccc2-c2c[nH]c3ccc(C#N)cc23)c(O)c1	enzyme activity, inhibitor, ADP detection	–	1100 nM
O=C1Nc2ccc(-c3ccc(C(=O)N4CCOCC4)cc3)cc2/C1=C/c1ccc(N2CCNCC2)cc1	enzyme activity, inhibitor, FRET	–	9.54 nM and < 16 nM
Cc1ccc2oc(-c3c4c(N)n[nH]c(=O)c4nn3-c3c(F)cccc3F)c(C)c2c1	enzyme activity, inhibitor, ELISA	–	31.3 nM
COc1cc2nccc(Oc3ccc4sc(Nc5ccc(Cl)c(F)c5)nc4c3)c2cc1C(N)=O	–	–	3680 nM
C=CC(=O)Nc1ccc(-c2c(-c3ccc(Oc4ccccc4)cc3)c3c(N)ncnc3n2C)cc1	Caliper mobility shift	30 min preincubation, together with: 100 µM ATP	84 nM
Cc1c(-c2c3c(N)n[nH]c(=O)c3nn2-c2ccccc2)oc2cc(F)ccc12	enzyme activity, inhibitor, ELISA	–	60.3 nM
C=C(C)C(=O)Nc1ccc(-c2c(-c3ccc(Oc4cccc(C)n4)cc3)c3c(N)ncnc3n2C)cc1	Caliper mobility shift	30 min preincubation, together with: 100 µM ATP	470 nM
Cc1ccc2oc(-c3c4c(N)n[nH]c(=O)c4nn3-c3cccc(F)c3)c(C)c2c1	enzyme activity, inhibitor, ELISA	–	53.1 nM
CN1CCN(c2ccc(/C=C3\C(=O)Nc4ccc(-c5ccc(-c6ccc(O)cc6)cc5)cc43)cc2)CC1	enzyme activity, inhibitor, FRET	–	14.9 nM and < 16 nM
COc1cc(OC)cc(C(O)c2c[nH]c3ncc(C(F)(F)F)cc23)c1 (centres unmarked)	enzyme activity, inhibitor	–	54 nM
CN1CCN(C(=O)c2ccc(-c3ccc4c(c3)/C(=C/c3ccc(N5CCOCC5)cc3)C(=O)N4)cc2)CC1	enzyme activity, inhibitor, FRET	–	1890 nM
Cc1c(-c2c3c(N)n[nH]c(=O)c3nn2-c2ccc(NC(=O)/C=C/CN(C)C)cc2)oc2cc(F)ccc12	enzyme activity, inhibitor, ELISA	–	63.4 nM
COc1cc2nccc(Oc3ccc(NC(=S)N4CCN(C)CC4)c(Cl)c3)c2cc1C(N)=O	–	–	> 10000 nM
Cc1ccc2oc(-c3c4c(N)n[nH]c(=O)c4nn3-c3ccc([N+](=O)[O-])cc3)c(C)c2c1	enzyme activity, inhibitor, ELISA	–	44.7 nM
COc1cc2nccc(Oc3ccc(NC(=S)NC4CC4)c(Cl)c3)c2cc1C#N	–	–	1900 nM
C=CC(=O)Nc1ccc(-c2c(-c3ccc(OC)cc3)c3c(N)ncnc3n2C)cc1	Caliper mobility shift	30 min preincubation, together with: 100 µM ATP	63 nM
COc1cc2nccc(Oc3ccc(NC(=S)Nc4cc[nH]n4)c(Cl)c3)c2cc1C(N)=O	–	–	1830 nM
COc1cccc(Cc2c[nH]c3ncc(C(F)(F)F)cc23)c1	enzyme activity, inhibitor	–	83 nM
COc1cc2nccc(Oc3ccc(NC(=S)NCC(C)(C)O)c(Cl)c3)c2cc1C(N)=O	–	–	4360 nM
C=CC(=O)Nc1ccc(-c2c(-c3ccc(Oc4cccc(C)n4)cc3)c3c(N)ncnc3n2C)cc1	Caliper mobility shift	30 min preincubation, together with: 100 µM ATP	9.8 nM

Excerpt of the above:
SMILES	test	setting	IC50
Cc1ccc2oc(-c3c4c(N)n[nH]c(=O)c4nn3-c3ccc([N+](=O)[O-])cc3)c(C)c2c1	enzyme activity, inhibitor, ELISA	–	44.7 nM
COc1cc2nccc(Oc3ccc(NC(=S)NC4CC4)c(Cl)c3)c2cc1C#N	–	–	1900 nM
